Experimental data collected from several papers.
Numbered parts are unrelated; each lists some results of a single study. Positions count from the first letter of the parent shown.

Set 1
Target: Cyclic AMP-dependent transcription factor ATF-1 (ATF1, Homo sapiens, UniProt P18846, residues 1-271, full length assumed)
Method: protein-binding microarray
Molecule type: double-stranded DNA, one strand shown
Matrix: in vitro
Tested at: not given
Notes: k-mer, scored over probes, only values ≥0.25
Direction: higher = stronger binding
Construct (chain): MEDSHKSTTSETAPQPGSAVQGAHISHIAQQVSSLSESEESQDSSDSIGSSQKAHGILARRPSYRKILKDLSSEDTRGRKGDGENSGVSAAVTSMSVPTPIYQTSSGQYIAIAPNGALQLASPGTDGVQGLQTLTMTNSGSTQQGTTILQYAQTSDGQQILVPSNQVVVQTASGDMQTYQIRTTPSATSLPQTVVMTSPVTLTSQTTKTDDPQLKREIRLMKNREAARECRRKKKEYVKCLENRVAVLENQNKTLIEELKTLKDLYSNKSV
The E-score of `GACGCGA` is reported as 0.275.
`ACGTCAA` gave an E-score of 0.435.
`ACGTGTC` gave an E-score of 0.334.
The E-score of `CGTGAAG` is reported as 0.252.
`AAACGTC` has an E-score of 0.337.
`GGGGTGA` gave an E-score of 0.26.
The E-score of `CGTAGTA` is reported as 0.266.
With `CACCCCA` the E-score was 0.252.

Set 2
Target: CCNB1, cyclin fold, Cln2 fusion (human)
Method: yeast growth competition, sequencing
Matrix: yeast
Notes: strong parent motif
Reference: not given
Direction: higher = stronger binding
Parent: viral docking peptide; TSVRRALFTGGSD; partner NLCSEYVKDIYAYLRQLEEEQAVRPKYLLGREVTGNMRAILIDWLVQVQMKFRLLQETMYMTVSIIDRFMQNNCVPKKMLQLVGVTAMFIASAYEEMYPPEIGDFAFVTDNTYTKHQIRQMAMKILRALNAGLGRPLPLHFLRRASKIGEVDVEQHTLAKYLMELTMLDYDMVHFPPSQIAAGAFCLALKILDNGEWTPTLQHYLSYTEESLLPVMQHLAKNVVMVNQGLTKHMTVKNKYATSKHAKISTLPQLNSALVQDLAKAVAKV
`T9H` — result for “normalised enrichment score”: 1.7.
`S12E` — result for “normalised enrichment score”: 3.33.
Under “normalised enrichment score”, `S12K` is recorded as 1.02.
For `T9K`, “normalised enrichment score” read 1.2.
`A6G` — result for “normalised enrichment score”: 0.806.
For `F8S`, “normalised enrichment score” read 0.0236.
`G10R`: “normalised enrichment score” 0.921.
For `L7F`, “normalised enrichment score” read -0.0914.
Under “normalised enrichment score”, `G10H` is recorded as 1.44.
`F8M`: “normalised enrichment score” 0.327.
`S12N` — result for “normalised enrichment score”: 2.32.
Under “normalised enrichment score”, `S12D` is recorded as 3.68.
`T9W`: “normalised enrichment score” 1.26.
`V3Y`: “normalised enrichment score” 0.426.
For `S12A`, “normalised enrichment score” read 2.08.
`R5A`: “normalised enrichment score” 0.569.
For `F8Y`, “normalised enrichment score” read 0.106.
Under “normalised enrichment score”, `R4A` is recorded as 1.23.
For `S12P`, “normalised enrichment score” read 2.59.
Under “normalised enrichment score”, `R5I` is recorded as 0.873.
Under “normalised enrichment score”, `G10S` is recorded as 2.49.
`S12L`: “normalised enrichment score” 1.56.
For `S12V`, “normalised enrichment score” read 2.2.
For `F8P`, “normalised enrichment score” read 0.267.
Under “normalised enrichment score”, `F8R` is recorded as 0.29.

Set 3
Target: UDP-N-acetylglucosamine--peptide N-acetylglucosaminyltransferase 110 kDa subunit (OGT, Homo sapiens, UniProt O15294)
Effect on: binding
Method: phage display NGS
Molecule type: peptide
Tested at: concentration not given
Notes: panning round 2
Reference: input library
Construct (O15294 1-1046): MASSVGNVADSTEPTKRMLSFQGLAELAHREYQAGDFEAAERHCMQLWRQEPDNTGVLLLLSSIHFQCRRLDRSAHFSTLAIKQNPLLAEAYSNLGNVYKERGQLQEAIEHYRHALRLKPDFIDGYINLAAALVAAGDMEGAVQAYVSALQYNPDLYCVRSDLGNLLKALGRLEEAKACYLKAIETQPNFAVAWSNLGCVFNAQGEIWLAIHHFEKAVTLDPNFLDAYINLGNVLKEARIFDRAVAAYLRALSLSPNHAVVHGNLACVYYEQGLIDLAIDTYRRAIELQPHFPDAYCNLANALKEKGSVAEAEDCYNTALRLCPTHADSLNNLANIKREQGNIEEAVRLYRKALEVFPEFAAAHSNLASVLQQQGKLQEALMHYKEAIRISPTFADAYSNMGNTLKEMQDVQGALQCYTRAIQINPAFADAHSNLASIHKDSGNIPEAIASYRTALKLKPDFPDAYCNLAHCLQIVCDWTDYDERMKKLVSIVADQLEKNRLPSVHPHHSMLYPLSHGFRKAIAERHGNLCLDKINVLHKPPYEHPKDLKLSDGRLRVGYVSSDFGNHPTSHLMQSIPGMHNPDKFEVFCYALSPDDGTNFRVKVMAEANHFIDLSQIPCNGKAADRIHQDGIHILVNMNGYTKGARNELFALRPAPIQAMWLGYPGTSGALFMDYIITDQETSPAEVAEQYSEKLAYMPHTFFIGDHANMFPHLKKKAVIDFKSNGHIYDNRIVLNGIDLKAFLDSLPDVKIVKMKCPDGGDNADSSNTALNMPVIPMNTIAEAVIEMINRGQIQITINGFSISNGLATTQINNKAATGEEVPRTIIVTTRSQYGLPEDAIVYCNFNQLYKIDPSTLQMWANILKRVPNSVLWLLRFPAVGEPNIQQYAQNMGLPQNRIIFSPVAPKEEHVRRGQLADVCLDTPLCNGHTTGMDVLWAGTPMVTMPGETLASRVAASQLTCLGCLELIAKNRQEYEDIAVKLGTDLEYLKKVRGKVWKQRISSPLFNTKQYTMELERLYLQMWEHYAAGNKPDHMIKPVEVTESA
For `HSFMSYHLHTYHSMP`, “enrichment fold change” read 7.05.
For `IPAPHQQGTHHGFIH`, “enrichment fold change” read 6.18.
For `EVHRDMRYGHAPHA`, “enrichment fold change” read 4.53.
Under “enrichment fold change”, `WPMKHLHDRWSSHPF` is recorded as 4.91.
`WPVQPMYQIFGRYPE`: “enrichment fold change” 7.75.
For `HWGGVHIDHHTVNV`, “enrichment fold change” read 7.14.
`DSYHHPVKKTTHTH` — result for “enrichment fold change”: 3.
Under “enrichment fold change”, `YFEPKYEISFKYPHD` is recorded as 10.6.
`KGVRETWLPAYTIVY` — result for “enrichment fold change”: 3.76.

Set 4
Target: tungstate, free oxyanion
Method: microfluidic competitive inhibition
Matrix: in vitro, cell-free expressed
Tested at: not given
Notes: derived from inhibition constants, unchanged parent 2230 nM
Direction: lower = stronger binding
Parent: PafA, mature enzyme, eGFP fusion (Elizabethkingia meningoseptica, UniProt Q9KJX5); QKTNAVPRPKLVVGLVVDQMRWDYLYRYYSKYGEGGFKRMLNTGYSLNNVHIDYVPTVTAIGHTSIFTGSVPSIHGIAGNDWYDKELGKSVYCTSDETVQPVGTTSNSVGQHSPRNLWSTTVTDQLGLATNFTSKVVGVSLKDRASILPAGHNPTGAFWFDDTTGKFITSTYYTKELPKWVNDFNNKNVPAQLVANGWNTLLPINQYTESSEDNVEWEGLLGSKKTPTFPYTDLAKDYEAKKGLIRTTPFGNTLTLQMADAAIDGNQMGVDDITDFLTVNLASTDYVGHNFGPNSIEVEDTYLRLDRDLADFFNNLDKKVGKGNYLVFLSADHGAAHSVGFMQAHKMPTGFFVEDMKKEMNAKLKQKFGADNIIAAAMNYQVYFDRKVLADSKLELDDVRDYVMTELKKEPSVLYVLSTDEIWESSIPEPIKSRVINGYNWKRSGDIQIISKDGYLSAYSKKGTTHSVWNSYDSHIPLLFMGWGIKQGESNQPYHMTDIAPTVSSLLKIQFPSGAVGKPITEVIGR
For `V50G`, “oxyanion analog dissociation constant” read 867 nM.
`A129G`: “oxyanion analog dissociation constant” 2.05 µM.
`N379V` — result for “oxyanion analog dissociation constant”: 1.9 µM.
`T502V`: “oxyanion analog dissociation constant” 1.14 µM.
`A310G`: “oxyanion analog dissociation constant” 2.29 µM.
For `M258G`, “oxyanion analog dissociation constant” read 1.36 µM.
`V339A` — result for “oxyanion analog dissociation constant”: 2.12 µM.
Under “oxyanion analog dissociation constant”, `D213V` is recorded as 1.2 µM.
`S505V`: “oxyanion analog dissociation constant” 2.53 µM.
`F384G`: “oxyanion analog dissociation constant” 2.42 µM.
`V181G`: “oxyanion analog dissociation constant” 1.15 µM.
`D233G`: “oxyanion analog dissociation constant” 2.03 µM.
`W198G`: “oxyanion analog dissociation constant” 1.13 µM.
`I296V`: “oxyanion analog dissociation constant” 3.21 µM.
`I52V` — result for “oxyanion analog dissociation constant”: 3.01 µM.
Under “oxyanion analog dissociation constant”, `K319G` is recorded as 1.96 µM.
For `T228V`, “oxyanion analog dissociation constant” read 2.33 µM.
`M496V` — result for “oxyanion analog dissociation constant”: 2.72 µM.
For `K135G`, “oxyanion analog dissociation constant” read 2.24 µM.
Under “oxyanion analog dissociation constant”, `N437V` is recorded as 1.04 µM.
`T171G`: “oxyanion analog dissociation constant” 1.88 µM.
For `S295G`, “oxyanion analog dissociation constant” read 2.27 µM.
`F67G` — result for “oxyanion analog dissociation constant”: 1.68 µM.
Under “oxyanion analog dissociation constant”, `F351V` is recorded as 3.46 µM.
For `V416A`, “oxyanion analog dissociation constant” read 2.26 µM.

For quick reference, copied from above (set 2):
For `S12V`, “normalised enrichment score” read 2.2.
Under “normalised enrichment score”, `S12K` is recorded as 1.02.
For `S12P`, “normalised enrichment score” read 2.59.
For `F8P`, “normalised enrichment score” read 0.267.
For `S12A`, “normalised enrichment score” read 2.08.
Under “normalised enrichment score”, `R4A` is recorded as 1.23.
`T9H` — result for “normalised enrichment score”: 1.7.
`R5A`: “normalised enrichment score” 0.569.
